Results of several laboratories.
Lines come from different studies, so protocols differ. ± gives the spread as reported.

Compound	assay	system	conditions	tissue uptake
CC(C)C[C@H](NC(=O)[C@@H](CCCCNC(=O)[C@@H](Cc1ccccc1)NC(=O)CCCCCCCNC(=O)CN1CCN(CC(=O)O)CCN(CC(=O)O)CCN(CC(=O)O)CC1)NC(=O)[C@H](Cc1ccc(O)cc1)NC(=O)[C@H](CO)NC(=O)[C@H](Cc1c[nH]c2ccccc12)NC(=O)[C@H](Cc1c[nH]cn1)NC(=O)[C@@H]1CCC(=O)N1)C(=O)N[C@@H](CCCNC(=N)N)C(=O)N1CCC[C@H]1C(=O)NCC(N)=O [indium-111 labelled]	biodistribution	male athymic nude mice, DU-145 prostate cancer xenograft, pancreas	intravenous, 0.037 MBq, 0.5 h post-injection	0.74 ± 0.26 %ID/g
CCCC[C@H](NC(=O)CNC(=O)CNC(=O)[C@H](CCCCNC(=O)[C@H](CC(N)=O)NC(=O)C(C)c1ccc(CC(C)C)cc1)NC(=O)CN1CCN(CC(=O)O)CCN(CC(=O)O)CCN(CC(=O)O)CC1)C(=O)N[C@H]1CC(=O)NCCCC[C@@H](C(N)=O)NC(=O)[C@H](Cc2c[nH]c3ccccc23)NC(=O)[C@H](CCCNC(=N)N)NC(=O)[C@@H](Cc2ccccc2)NC(=O)[C@H](Cc2c[nH]cn2)NC1=O (stereo partly shown) [lutetium-177 labelled]		C57 mice, tumour-bearing, stomach	2 h	4 ± 2.43 %ID/g
O=C(NCC1OC2CCC=CCCC2O1)c1ccc(COCCOCCOCC[18F])cc1 (stereo not shown)		healthy female BALB/c nude mice, bone	intravenous, 7.4 MBq per mouse, 60 min	2.1 ± 0.1 %ID/g
Cc1cc(C)n(CCN(CCN)CCCCCCNC(=O)[C@@H](N)Cc2c[nH]cn2)n1.[99Tc+].[C-]#[O+].[C-]#[O+].[C-]#[O+]		BALB/c nude mice, MCF7 xenograft, muscle	intravenous, 15 min	0.65 ± 0.17 %IA/g
N#C[C@@H]1CCCN1C(=O)CNC(=O)c1ccnc2ccc(OCCCN3CCN(C(=O)CCc4ccc5c(c4)CN4CCN(Cc6cc(CCC(=O)O)ccc6O)CC(=O)[O][Al-]([18F])([O]C(=O)C4)[O]5)CC3)cc12 (stereo partly shown)		BALB/c nude mice, U-87 MG xenograft, bone	1 h, blocking, together with: DOTA-FAPI-04 40 nmol/mouse co-injected	13.2 ± 2.48 %ID/g
O=C(NCC1OC2CCC=CCCC2O1)c1ccc([18F])nc1 (stereo not shown)		healthy female BALB/c nude mice, heart	intravenous, 7.4 MBq per mouse, 120 min	0.4 ± 0.03 %ID/g
CCCC[C@H](NC(=O)CNC(=O)CNC(=O)[C@H](CCCCNC(=O)[C@H](CC(=O)O)NC(=O)C(C)c1ccc(CC(C)C)cc1)NC(=O)CN1CCN(CC(=O)O)CCN(CC(=O)O)CCN(CC(=O)O)CC1)C(=O)N[C@H]1CC(=O)NCCCC[C@@H](C(N)=O)NC(=O)[C@H](Cc2c[nH]c3ccccc23)NC(=O)[C@H](CCCNC(=N)N)NC(=O)[C@@H](Cc2ccccc2)NC(=O)[C@H](Cc2c[nH]cn2)NC1=O (stereo partly shown) [lutetium-177 labelled]		C57 mice, tumour-bearing, kidneys	intravenous, 0.037 MBq, 0.5 h	14.1 ± 1.39 %ID/g
COc1ccc(Nc2nc(Nc3ccc(OCCOCC[18F])cc3)ncc2Br)cc1		ICR mice, S180 tumour-bearing, spleen	intravenous, 370 kBq, 30 min	2.68 ± 0.28 %ID/g
CCCC[C@H](NC(=O)COCCOCCNC(=O)CN1CCN(CC(=O)O)CCN(CC(=O)O)CC1)C(=O)N[C@H]1CC(=O)NCCCC[C@@H](C(N)=O)NC(=O)[C@H](Cc2c[nH]c3ccccc23)NC(=O)[C@H](CCCNC(=N)N)NC(=O)[C@@H](Cc2ccccc2)NC(=O)[C@H](Cc2c[nH]cn2)NC1=O [fluorine-18 labelled]		C57 mice B16-F10 melanoma, liver	intravenous, 0.37 MBq, 2 h	0.83 ± 0.14 %ID/g
N#C[C@@H]1CCCN1C(=O)CNC(=O)c1ccnc2ccc(OCCCN3CCN(C(=O)CCc4ccc5c(c4)CN4CCN6CC(=O)[O][68Ga-]([O]C(=O)C4)([O]5)[O]c4ccc(CCC(=O)N5CCN(CCCOc7ccc8nccc(C(=O)NCC(=O)N9CCC[C@H]9C#N)c8c7)CC5)cc4C6)CC3)cc12		BALB/c nude mice, U-87 MG xenograft, liver	1 h, blocking, together with: DOTA-FAPI-04 40 nmol/mouse co-injected	7.08 ± 0.59 %ID/g
O=C([O-])CN1CCN(CC(=O)[O-])CCN(CC(=O)NC[C@H]2CC[C@H](C(=O)N[C@H](Cc3cnc4ccccc4c3)C(=O)NCCCC[C@H](NC(=O)N[C@@H](CCC(=O)O)C(=O)O)C(=O)O)CC2)CCN(CC(=O)[O-])CC1.[64Cu+2]	ex vivo gamma counting	22Rv1 tumour-bearing mice, muscle	intravenous, 0.74 MBq, 1 h post-injection	0.96 %ID/g
COc1ccc(Nc2nc(Nc3ccc(OCCOCCOCC[18F])cc3)ncc2Br)cc1		ICR mice, S180 tumour-bearing, kidney	intravenous, 370 kBq, 5 min	2.07 ± 0.16 %ID/g
CCCC[C@H](NC(=O)CCCCCCCNC(=O)CN1CCN(CC(=O)O)CCN(CC(=O)O)CC1)C(=O)N[C@H]1CC(=O)NCCCC[C@@H](C(N)=O)NC(=O)[C@H](Cc2c[nH]c3ccccc23)NC(=O)[C@H](CCCNC(=N)N)NC(=O)[C@@H](Cc2ccccc2)NC(=O)[C@H](Cc2c[nH]cn2)NC1=O [fluorine-18 labelled]		C57 mice, B16/F10 melanoma, brain	intravenous, 1 h, together with: NDP-MSH 10 µg	0.03 ± 0.01 %ID/g

Excerpt of the above:
Compound	assay	system	conditions	tissue uptake
CCCC[C@H](NC(=O)CNC(=O)CNC(=O)[C@H](CCCCNC(=O)[C@H](CC(=O)O)NC(=O)C(C)c1ccc(CC(C)C)cc1)NC(=O)CN1CCN(CC(=O)O)CCN(CC(=O)O)CCN(CC(=O)O)CC1)C(=O)N[C@H]1CC(=O)NCCCC[C@@H](C(N)=O)NC(=O)[C@H](Cc2c[nH]c3ccccc23)NC(=O)[C@H](CCCNC(=N)N)NC(=O)[C@@H](Cc2ccccc2)NC(=O)[C@H](Cc2c[nH]cn2)NC1=O (stereo partly shown) [lutetium-177 labelled]		C57 mice, tumour-bearing, kidneys	intravenous, 0.037 MBq, 0.5 h	14.1 ± 1.39 %ID/g
